Measurements gathered from unrelated publications.
Each line is one published result; not all experiments were run side by side. Numbers after ± are the reported error. Converted amounts (≈) assume the structure as drawn.
cyp121: Mycocyclosin synthase (cyp121, Mycobacterium tuberculosis, UniProt P9WPP7)

The chains behind the UniProt entries cited, without tags or fusion partners.
UniProt P9WPP7, whole entry: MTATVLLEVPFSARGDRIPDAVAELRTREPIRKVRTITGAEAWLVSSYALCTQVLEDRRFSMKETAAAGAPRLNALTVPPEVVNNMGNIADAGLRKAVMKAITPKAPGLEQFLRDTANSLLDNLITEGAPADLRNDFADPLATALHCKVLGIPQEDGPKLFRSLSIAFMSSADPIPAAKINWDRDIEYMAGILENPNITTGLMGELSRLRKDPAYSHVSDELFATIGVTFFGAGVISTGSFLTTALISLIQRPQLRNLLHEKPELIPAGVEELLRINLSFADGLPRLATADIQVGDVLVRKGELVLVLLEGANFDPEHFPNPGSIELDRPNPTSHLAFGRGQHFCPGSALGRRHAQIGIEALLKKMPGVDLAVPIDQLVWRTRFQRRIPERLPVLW

Structure (SMILES)	tested on	test	system	conditions	measurement	value
CC(=O)Oc1ccc2nc3ccc(=O)cc-3oc2c1	Mycobacterium tuberculosis		mc2 6206 clofazimine-resistant fbiC mutant	7 days	MIC90	> 256 µM
CC[C@H](C)[C@H](NC(=O)[C@H](C)NC(=O)[C@H](CCC(=O)O)NC(=O)[C@H](CCC(=O)O)NC(=O)[C@H](CC(C)C)NC(=O)[C@H](CCCCN)NC(=O)[C@H](CCCCN)NC(=O)[C@H](CCSC)NC(=O)[C@H](CCC(=O)O)NC(=O)[C@H](Cc1ccc(O)cc1)NC(=O)[C@H](CCC(=O)O)NC(=O)[C@H](CC(C)C)NC(=O)[C@H](CC(=O)O)NC(=O)[C@H](CC(C)C)NC(=O)[C@H](Cc1ccccc1)NC(=O)[C@H](Cc1ccccc1)NC(=O)[C@@H](NC(=O)[C@H](CC(N)=O)NC(=O)[C@@H](NC(=O)[C@H](CCC(N)=O)NC(=O)[C@H](CC(=O)O)NC(=O)[C@H](CC(C)C)NC(=O)[C@@H](N)CO)[C@@H](C)CC)C(C)C)C(=O)N[C@@H](CCCCN)C(=O)N[C@@H](CCCCN)C(=O)N[C@@H](CC(C)C)C(=O)N[C@@H](CCC(=O)O)C(=O)N[C@@H](CCC(=O)O)C(=O)N[C@@H](C)C(=O)N[C@@H](Cc1ccc(O)cc1)C(=O)N[C@H](C(=O)N[C@@H](CC(=O)O)C(=O)N[C@@H](CC(C)C)C(=O)N[C@@H](CCCCN)C(=O)N[C@@H](CCC(=O)O)C(=O)N[C@@H](CC(C)C)C(=O)O)[C@@H](C)CC	HCoV-OC43	viral infection, inhibitor, immunostaining	HCT-8	2 days, dual mutations	IC50	0.488 µM
NC1CSC2(SC1)C1CC3CC(C1)CC2C3 (stereo not drawn)	Influenza A virus	viral replication, plaque reduction	MDCK, A/Udorn/72 H3N2 M2 wild type		EC50	0.07 ± 0.01 µM
Cc1cc(=O)oc2cc(OCCCCn3cc(COc4ccc(N5C(N)=NC(N)=NC56CCCCC6)cc4)nn3)ccc12	Mycobacterium bovis		BCG Tac^r10.1, thyA H147Y missense	TA-C-resistant thyA mutant	MIC50	3.2 µM (≈ 1.87 µg/mL)
CC[C@H](C)[C@H](NC(=O)[C@H](C)NC(=O)[C@H](CCC(=O)O)NC(=O)[C@H](CCC(=O)O)NC(=O)[C@H](CC(C)C)NC(=O)[C@H](CCCCN)NC(=O)[C@H](CCCCN)NC(=O)[C@H](CCSC)NC(=O)[C@H](CCC(=O)O)NC(=O)[C@H](Cc1ccc(O)cc1)NC(=O)[C@H](CCC(=O)O)NC(=O)[C@H](CC(C)C)NC(=O)[C@H](CC(=O)O)NC(=O)[C@H](CC(C)C)NC(=O)[C@H](Cc1ccccc1)NC(=O)[C@@H](NC(=O)[C@@H](NC(=O)[C@H](CC(N)=O)NC(=O)[C@@H](NC(=O)[C@H](CCC(N)=O)NC(=O)[C@H](CC(=O)O)NC(=O)[C@H](CC(C)C)NC(=O)[C@@H](N)CO)[C@@H](C)CC)C(C)C)[C@@H](C)O)C(=O)N[C@@H](CCCCN)C(=O)N[C@@H](CCCCN)C(=O)N[C@@H](CC(C)C)C(=O)N[C@@H](CCC(=O)O)C(=O)N[C@@H](CCC(=O)O)C(=O)N[C@H](C(=O)N[C@@H](Cc1ccc(O)cc1)C(=O)N[C@H](C(=O)N[C@@H](CC(=O)O)C(=O)N[C@@H](CC(C)C)C(=O)N[C@@H](CCCCN)C(=O)N[C@@H](CCC(=O)O)C(=O)N[C@@H](CC(C)C)C(=O)O)[C@@H](C)CC)[C@@H](C)O	HCoV-OC43	viral infection, inhibitor, immunostaining	HCT-8	2 days	IC50	1.31 µM
Nc1n[nH]c(=O)[nH]1	Aliivibrio fischeri	bioluminescence, Microtox		30 min	IC20	22400 µM
CC(C)(c1ccc(-c2ccc(F)cc2)cc1)n1ccnc1	cyp121	binding			Kd	8.9 ± 0.54 µM
NC1=NC2(CCCCC2)N(c2ccc(OCc3cn(CCCCOc4ccc5ccc(=O)oc5c4)nn3)cc2)C(N)=N1	Mycobacterium bovis BCG		resistant, thyA A148E		MIC50	3.2 µM (≈ 1.83 µg/mL)
O=C(O)c1ccc(-c2ccc([N+](=O)[O-])cc2Cl)o1	Mycobacterium bovis		BCG		MIC99	500 µM (≈ 134 µg/mL)
CC[C@@H]1NC(=O)[C@H](CO)NC(=O)CNC(=O)[C@H](CSCNC(C)=O)NC(=O)[C@H](CCCCN)NC(=O)CNC(=O)[C@H](CO)NC(=O)[C@H](CCCNC(=N)N)NC(=O)[C@@H]2CSSC[C@H](NC(=O)[C@H](CCCCN)NC(=O)[C@H](C)NC(=O)CNC(=O)[C@H](CCCCN)NC(=O)CNC(=O)[C@H](CCCCN)NC1=O)C(=O)N[C@@H](CO)C(=O)N[C@@H](CCCNC(=N)N)C(=O)N[C@@H](CC(C)C)C(=O)N[C@@H](CCSC)C(=O)N[C@@H](Cc1ccc(O)cc1)C(=O)N[C@@H](CC(=O)O)C(=O)N[C@@H](CSCNC(C)=O)C(=O)N[C@@H](CC)C(=O)N[C@@H]([C@@H](C)O)C(=O)NCC(=O)N[C@@H](CO)C(=O)N2	Candida tropicalis				MIC	42.2 µM (≈ 121 µg/mL)
CC[C@H](C)[C@H](NC(=O)[C@H](C)NC(=O)[C@H](CCC(=O)O)NC(=O)[C@H](CCC(=O)O)NC(=O)[C@H](CC(C)C)NC(=O)[C@H](CCCCN)NC(=O)[C@H](CCCCN)NC(=O)[C@H](CCSC)NC(=O)[C@H](CCC(=O)O)NC(=O)[C@H](Cc1ccc(O)cc1)NC(=O)[C@H](CCC(=O)O)NC(=O)[C@H](CC(C)C)NC(=O)[C@H](CC(=O)O)NC(=O)[C@H](CC(C)C)NC(=O)[C@H](Cc1ccccc1)NC(=O)[C@H](Cc1ccccc1)NC(=O)[C@@H](NC(=O)[C@H](CC(N)=O)NC(=O)[C@@H](NC(=O)[C@H](CCC(N)=O)NC(=O)[C@H](CC(=O)O)NC(=O)[C@H](CC(C)C)NC(=O)[C@@H](N)CO)[C@@H](C)CC)C(C)C)C(=O)N[C@@H](CCCCN)C(=O)N[C@@H](CCCCN)C(=O)N[C@@H](CC(C)C)C(=O)N[C@@H](CCC(=O)O)C(=O)N[C@@H](CCC(=O)O)C(=O)N[C@@H](CO)C(=O)N[C@@H](Cc1ccc(O)cc1)C(=O)N[C@H](C(=O)N[C@@H](CC(=O)O)C(=O)N[C@@H](CC(C)C)C(=O)N[C@@H](CCCCN)C(=O)N[C@@H](CCC(=O)O)C(=O)N[C@@H](CC(C)C)C(=O)O)[C@@H](C)CC	HCoV-OC43	viral infection, inhibitor, immunostaining	HCT-8	2 days	IC50	0.147 µM
O=C1C(Cl)=C(Cl)C(=O)c2ccccc21	porcine epidemic diarrhea virus	viral replication	Vero	16 h	EC50	38.5 µM
O=c1c2ccccc2[nH]c(=S)n1Cc1cccnc1	Mycobacterium tuberculosis	intracellular growth	THP-1 macrophages, H37Rv-GFP		IC80	> 30 µM
CC[C@H](C)[C@H](NC(=O)[C@H](C)NC(=O)[C@H](CCC(=O)O)NC(=O)[C@H](CCC(=O)O)NC(=O)[C@H](CC(C)C)NC(=O)[C@H](CCCCN)NC(=O)[C@H](CCCCN)NC(=O)[C@H](CCSC)NC(=O)[C@H](CCC(=O)O)NC(=O)[C@H](Cc1ccc(O)cc1)NC(=O)[C@H](CCC(=O)O)NC(=O)[C@H](CC(C)C)NC(=O)[C@H](CC(=O)O)NC(=O)[C@H](CC(C)C)NC(=O)[C@H](Cc1ccccc1)NC(=O)[C@@H](NC(=O)[C@@H](NC(=O)[C@H](CC(N)=O)NC(=O)[C@@H](NC(=O)[C@H](CCC(N)=O)NC(=O)[C@H](CC(=O)O)NC(=O)[C@H](CC(C)C)NC(=O)[C@@H](N)CO)[C@@H](C)CC)C(C)C)[C@@H](C)O)C(=O)N[C@@H](CCCCN)C(=O)N[C@@H](CCCCN)C(=O)N[C@@H](CC(C)C)C(=O)N[C@@H](CCC(=O)O)C(=O)N[C@@H](CCC(=O)O)C(=O)N[C@@H](CO)C(=O)N[C@@H](Cc1ccc(O)cc1)C(=O)N[C@H](C(=O)N[C@@H](CC(=O)O)C(=O)N[C@@H](CC(C)C)C(=O)N[C@@H](CCCCN)C(=O)N[C@@H](CCC(=O)O)C(=O)N[C@@H](CC(C)C)C(=O)O)[C@@H](C)CC	HCoV-OC43	viral infection, inhibitor, immunostaining	HCT-8	2 days, dual mutations	IC50	0.519 µM
c1cn(Cc2ccc(-c3ccoc3)cc2)cn1	cyp121	binding			Kd	32.9 ± 11.1 µM

A few entries again:
Structure (SMILES)	tested on	test	system	conditions	measurement	value
Cc1cc(=O)oc2cc(OCCCCn3cc(COc4ccc(N5C(N)=NC(N)=NC56CCCCC6)cc4)nn3)ccc12	Mycobacterium bovis		BCG Tac^r10.1, thyA H147Y missense	TA-C-resistant thyA mutant	MIC50	3.2 µM (≈ 1.87 µg/mL)
